Results from different studies.
Compare with care: the assays were run in different laboratories. Numbers after ± are the reported error.

CC(C)[C@H](CO)Nc1nc(Nc2ccc(C(=O)NCCNS(=O)(=O)c3cccc4c(N(C)C)cccc34)c(Cl)c2)c2ncn(C(C)C)c2n1 — concentration (C57BL/6 mouse, cerebellum; intraperitoneal, 20 mg/kg, 4 h): 140 ± 50 nM
COCCOCCOCCOCCC(=O)NCc1cc(CNC(=O)CCOCCOCCOCCOC)cc(-c2cc3cc4nc(c(-c5ccc(CCC(=O)O)cc5)c5[nH]c(cc6nc(c(OC)c2[nH]3)CC6(C)C)cc5-c2cc(CNC(=O)CCOCCOCCOCCOC)cc(CNC(=O)CCOCCOCCOCCOC)c2)CC4(C)C)c1 — Qy absorption FWHM (DMF; room temperature): 21 nm
C=CC(=O)Nc1cc(Nc2nccc(-c3cn(C4CC4)c4ccccc34)n2)c(OC)cc1N(C)CCNC — share of radioactivity (LC-RAM/HRMS; human male, plasma; oral, 110 mg, 24 h; reference: total radioactivity): 16.1%
CC12CC(c3ccc(S(C)(=O)=O)cc3)C3=C4CCC(=O)C=C4CCC3C1CCC2(O)C(F)(F)C(F)(F)F (stereo not drawn) — tlast (item: total radioactivity; human, plasma; oral, 5 mg): 120 h
Cc1ccc(C(=O)N[C@@H](CO)CC(C)C)cc1CO — metabolite peak area (LC-MS; Sprague-Dawley rat, both sexes, rat liver microsomes; 10 µM of parent drug, 20 min, pH 7.4, added: NADPH; reference: parent drug at time zero): 0.5%
C=CC(=O)Nc1cc(Nc2nccc(-c3cn(C4CC4)c4ccccc34)n2)c(OC)cc1NC — share of radioactivity (LC-RAM/HRMS; human male, plasma; oral, 110 mg, 48 h; reference: total radioactivity): 25%
O=C(CCc1ccc(CNC(C(=O)O)C2CCCCC2)cn1)NO (stereo not drawn) — AUC(0-t) (human, plasma; oral, 20 mg once daily, day 1, geometric mean): 97.8 ng·h/mL
CCOc1c(C(C)(C)O)sc2cnc(Nc3ccc(N4CCC(N5CC6(COC6)C5)CC4)cc3OC)nc12 — APD90 change (New Zealand rabbit, male, isolated Purkinje fibres; 30 µM, 45 min, pacing 0.25 Hz): -10 ± 4%
CC(C)(O)c1ncc([S@](N)(=O)=NC(=O)Nc2c3c(cc4c2CCC4)CCC3)s1 — dose-normalised Cmax (healthy human volunteers, plasma; oral, 600 mg single dose, fasted, spray-dried dispersion): 98.5 ng/mL/mg
Clc1ccc2c(c1)nc(N1CC3CNCC3C1)n2Cc1ccccc1 (stereo not drawn) — compound remaining (metabolic stability; rat, liver microsomes; 0.1 µM, 30 min, pH 7.4): 85.7%
O=C(O)C1CN(Cc2ccc(-c3noc(-c4ccc(OCC[18F])c(C(F)(F)F)c4)n3)cc2)C1 — tracer uptake (rat, liver; intravenous, 30 min): 5.51 %ID/g
CCc1cc(Nc2nc(-c3ccc(-n4cnc(C)c4)c(F)c3)cs2)c(C)cc1C — apparent clearance (CL/F) (human, plasma; oral, 100 mg once daily, day 14, multiple dose, geometric mean): 31200 mL/h
COc1cc(OC)cc(C2=C3C(C)=C(I)C(C)=[N+]3[B-](F)(F)n3c(/C=C/c4cccs4)c(I)c(C)c32)c1 — Stokes shift (THF): 329 cm⁻¹
CCCC[C@H](NC(=O)[C@H](CC(C)C)N(C)C(=O)CNC(=O)[C@@H](NC(=O)[C@H](Cc1ccccc1)NC(=O)[C@H](CCCCN)NC(=O)[C@@H](N)CC(=O)O)C(C)C)C(N)=O — heart rate change (anaesthetised Sinclair minipigs; IV, 0.3 µg/kg; reference: baseline): 4.2 ± 5.16%
COc1c(Cl)ccc(Cl)c1C(=O)OC[C@H]1OC(O)[C@H](O)[C@@H]1O (stereo partly drawn) — dicamba formed (HPLC; water; 7 days): 2.8%
COc1ccc(/C=C/c2ccc(-c3ccc(C)cn3)nc2)cc1 — fluorescence lifetime (TCSPC; toluene): 0.79 ns
CC1=C(/C=C/C(=O)N2CCN(C(N)=O)CC2)C(C)(C)CCC1 — half-life (male mouse, plasma; oral, 120 mg/kg, single dose): 4.24 h
CC[C@H](C)[C@H](NC(=O)[C@H](N)Cc1ccc(O)cc1)C(=O)N[C@H]1CSSC[C@@H](C(=O)N(C)[C@H](C(N)=O)[C@@H](C)CC)NC(=O)[C@H](CCCNC(=N)N)NC(=O)[C@H](Cc2c[nH]cn2)NC(=O)[C@H](C)NC(=O)CN(C)C(=O)[C@H](Cc2c[nH]c3ccccc23)NC(=O)[C@H](CC(=O)O)NC(=O)[C@H](CCC(N)=O)NC(=O)[C@H](Cc2cn(C)c3ccccc23)NC(=O)[C@H](C(C)C)NC1=O — recovery (UPLC-ESI-MS; human plasma; 0.18 µg/mL, 48 h, 4 °C, autosampler after SPE): 99.6 ± 0.3%
COC(=O)C(c1ccccc1Cl)N1CCC2SC(=O)C=C2C1 (stereo not drawn) — measured concentration (LC-MS/MS; human plasma; 50 ng/mL, after freeze-thaw cycles): 51 ± 3.9 ng/mL
CC[C@H](C)[C@@H]1NC(=O)[C@H](Cc2ccccc2)NC(=O)[C@@H](NC(=O)[C@H](CCCNC(=N)N)NC(=O)[C@H](Cc2ccccc2)NC(=O)[C@H](Cc2ccccc2)NC(=O)[C@H](CCCCN)NC(=O)[C@H](CO)NC(=O)[C@H](CC(C)C)NC(=O)[C@H](CCCNC(=N)N)NC(=O)[C@H](CCSC)NC(=O)[C@H](C)N)CNC(=O)NCCCC[C@@H](C(=O)N[C@@H](CCCNC(=N)N)C(=O)N[C@@H](CCCCN)C(=O)N[C@@H](CCCCN)C(=O)O)NC(=O)[C@H](CC(C)C)NC1=O — melting temperature (circular dichroism; 2.5 mM DPC): 65.9 °C
CONC(=O)/C=C/c1cccc(S(=O)(=O)Nc2ccccc2)c1 — fold change in AUC metabolite ratio (human patients, liver dysfunction; intravenous, 400 mg/m^2 of belinostat, with worsening liver function; reference: compound over parent drug): ~2 fold
N=C(N)NCCC[C@@H]1NC(=O)[C@H](Cc2c[nH]c3ccccc23)NC(=O)[C@@H](CC2CCCCC2)NC(=O)[C@@H]2CCCN2C(=O)[C@@H](NC(=O)CCc2ccccc2)CCCNC1=O — elimination half-life (C57BL/6J mice, brain; intraperitoneal, 1 mg/kg): 0.776 h
COc1ccc(-c2ccn(CC[C@](C)(C(=O)NO)S(C)(=O)=O)c(=O)c2)c(F)c1 — Vss (CF-1 mouse, female; subcutaneous, 18.75 mg/kg): 2.2 ± 0.19 L/kg
COC[C@@H](CC(C)C)NC(=O)c1ccc(CO)c(C)c1 — metabolite peak area (LC-MS; Sprague-Dawley rat, both sexes, rat liver microsomes; 10 µM of parent drug, 20 min, pH 7.4, added: NADPH; reference: parent drug at time zero): 35.7%
[11CH3]c1ccc2nc(C3CCC3)n(-c3ccc4[nH]ncc4c3)c2n1 — absorbed dose (extrapolated from mouse; human male, heart wall): 4.4 µSv/MBq
CNC(=O)N[C@]1(C)CCC[C@@]2(C)C3CC[C@@]4(C)C[C@]3(CCC21)CC4=O (single isomer, unassigned) — measured concentration (rat plasma; 1.5 ng/mL, 101 d, -80 °C, long-term storage stability): 1.46 ± 0.17 ng/mL
Cn1c(=O)oc2ccc(-c3ccc(CC(C#N)NC(=O)C4CNCCCO4)c(F)c3)cc21 (stereo not drawn) — urine RBC positive incidence (human; oral, 20 mg once daily, TEAE, multiple ascending dose): 11.1%
C[C@H](Oc1cc(-c2cnn(C3CCN(CC[18F])CC3)c2)cnc1N)c1c(Cl)ccc(F)c1Cl — tracer uptake (PET imaging; nude mouse, kidney; iv, 10 min post injection): 14.2 ± 4.7 %ID/cc
CCCC[C@H](NC(C)=O)C(=O)N[C@H]1CC(=O)NCCCC[C@@H](C(=O)N[C@@H](C(=O)N2CCC[C@@H]2C(N)=O)C(C)C)NC(=O)[C@H](Cc2c[nH]c3ccccc23)NC(=O)[C@H](CCCN=C(N)N)NC(=O)[C@@H](Cc2ccc3ccccc3c2)NC(=O)[C@@H]2CCCN2C1=O — Cmax (Beagle dog, both sexes, plasma; subcutaneous, once daily, 0.75 mg/kg, day 28): 2100 ± 500 ng/mL
Cc1[nH]nc2c1N=C(c1ccccc1Cl)c1cnc(N3CCOCC3)cc1N2 — apparent clearance (CL/F) (item: total radioactivity; human male, plasma; oral, 10 mg): 4080 mL/h

For quick reference, copied from above:
COc1ccc(/C=C/c2ccc(-c3ccc(C)cn3)nc2)cc1 — fluorescence lifetime (TCSPC; toluene): 0.79 ns
COCCOCCOCCOCCC(=O)NCc1cc(CNC(=O)CCOCCOCCOCCOC)cc(-c2cc3cc4nc(c(-c5ccc(CCC(=O)O)cc5)c5[nH]c(cc6nc(c(OC)c2[nH]3)CC6(C)C)cc5-c2cc(CNC(=O)CCOCCOCCOCCOC)cc(CNC(=O)CCOCCOCCOCCOC)c2)CC4(C)C)c1 — Qy absorption FWHM (DMF; room temperature): 21 nm
COc1ccc(-c2ccn(CC[C@](C)(C(=O)NO)S(C)(=O)=O)c(=O)c2)c(F)c1 — Vss (CF-1 mouse, female; subcutaneous, 18.75 mg/kg): 2.2 ± 0.19 L/kg
